# Results of several laboratories.
# Lines come from different studies, so protocols differ.
SMILES,target or system,assay,system,setting,scale,endpoint,value
C[N+]1=C2C=C(NCCc3c[nH]c4ccccc34)C(=O)c3[nH]cc(c32)CC1,Babesia divergens,"parasite growth, SYBR Green",,"60 h, blood stage",,IC50,1.6 nM
Cc1ncsc1-c1ccc(C(C)NC(=O)C2CC(O)CN2C(=O)C(NC(=O)CCCCCCCCCCN2CCCC(Nc3ncc(Cl)c(Nc4ccccc4S(=O)(=O)C(C)C)n3)C2)C(C)(C)C)cc1 (stereo not shown),22Rv1,"RNA-seq, item: PRKD2 mRNA",,concentration not given,reference: DMSO,log2 fold change,-1.04
C=CC(=O)Nc1cccc(Cn2ncc3cnc(Nc4cnn(CCOC)c4)nc32)c1,MST2 human,"binding, KINOMEscan",,100 nM,lower = stronger binding,percent of control,82%
CCCCCCCCCC(=O)N[C@@H](Cc1c[nH]c2ccccc12)C(=O)N[C@H](CC(N)=O)C(=O)N[C@@H](CC(=O)O)C(=O)N[C@@H]1C(=O)NCC(=O)N[C@@H](CCCNC(=O)OC2/C=C/CCCCC2)C(=O)N[C@@H](CC(=O)O)C(=O)N[C@H](C)C(=O)N[C@@H](CC(=O)O)C(=O)NCC(=O)N[C@H](CO)C(=O)N[C@@H]([C@H](C)CC(=O)O)C(=O)N[C@@H](CC(=O)c2ccccc2N)C(=O)O[C@@H]1C (stereo partly shown),Staphylococcus aureus,"planktonic bacterial growth, isothermal microcalorimetry",MSSA,"2.0 µg/mL, 24 h, 37 °C",,peak heat flow,0 µW
CCN(CC)CC#CCNc1ccnc2cc(Cl)ccc12,Plasmodium falciparum,"parasite growth, SYBR Green I",3D7,mean of experiments,,IC50,42.7 nM
c1ccc(CSc2nc3ccccc3cc2CNCCC2CCN(C3CCCC3)CC2)cc1,Acinetobacter baumannii,"NADH-driven proton pumping, ACMA quenching",inverted membrane vesicles,2 µg/mL,,inhibition,14%
COC1CN([C@H]2CC[C@H]([C@@]3(C)Oc4c(Cl)cc(C(=O)NCc5c(SC)cc(C)[nH]c5=O)c(C)c4O3)CC2)C1,,"RNA-seq, item: CAVIN1 mouse homolog","mouse, HT-1376 xenograft, whole blood",dose not given,reference: vehicle,log2 fold change,0.541
CNS(=O)(=O)Nc1nccc(Cc2c(C)c3ccc(Oc4ncccc4F)cc3oc2=O)c1F,JM1,cell viability,,7 days,,IC50,> 1000 nM
Fc1ccc2c(c1)c1nc3ccc(Br)cc3c-1cn2Cc1cn(-c2ccccc2I)nn1,Giardia duodenalis,"UHPLC-Q-TOF-MS, item: PC(O-16:0/2:0)",trophozoites,"IC50, 0.1757 h",reference: 0.25% DMSO,fold change,1.74
C[N+](C)(C)CCO.O=C([O-])C(Cl)Cl,Eleusine indica,,,"15 mg/mL, 21 days, post-emergence, greenhouse",,herbicidal inhibition,0%
COC1C=COC2(C)Oc3c(C)c(O)c4c(c3C2=O)C2=NC3(CCN(CC(C)C)CC3)NC2=C(NC(=O)C(C)=CC=CC(C)C(O)C(C)C(O)C(C)C(OC(=O)Nc2cnccn2)C1C)C4=O (stereo not shown),Mycobacteroides abscessus,bacterial growth,subsp. massiliense clinical isolate,slow grower,,IC50,9 nM
CCCCNCCO.O=C(O)C(Cl)Cl,Eleusine indica,,,"15 mg/mL, 21 days, post-emergence, greenhouse",,herbicidal inhibition,0%
C=C(NC(=O)c1csc(-c2nc3c(cc2O)-c2nc(cs2)C(=O)NC(C(C)O)C(=O)NC(=C(C)OC)c2nc(cs2)C(=O)NC2c4nc(cs4)C(=O)NC(COC(=O)c4c5c6c(cccc6n4O)COC(=O)C(OC4CC(C)(O)C(N(C)C)C(C)O4)C2OC5)c2nc-3cs2)n1)C(N)=O (stereo not shown),Streptococcus pneumoniae,,"-25, immunocompromised mice, lung","2 mg/kg/day once daily, 24 h post-dose",,lung bacterial load,6.49 log10 CFU/lung
Nc1ncc(-c2cc(-c3cnn(CC(F)(F)F)c3)ncc2F)nc1C(=O)NC1CNCC(F)C1 (stereo not shown),IGF1R,KINOMEscan,,1 µM,reference: DMSO control,remaining binding,62%
O=C(Oc1cc(OC(=O)c2cc(O)c(O)c(O)c2)c2ccccc2c1)c1cc(O)c(O)c(O)c1,herpes simplex virus 2,"ELISA, item: IL-6, TNF-α","333, BALB/c mice, genital herpes model, serum","15 and 30 mg/kg/day, 6 days post infection",,serum cytokine level,decreased
CN(Cc1ccc(C2(C(F)(F)F)CCC2)cc1)Cc1cccc2ccccc12,Trichophyton mentagrophytes,"microbial growth, disc diffusion",ATCC18748,"0.128 µg/mL, 72 h",,inhibition zone,34.5 mm

# Repeated from above:
SMILES,target or system,assay,system,setting,scale,endpoint,value
Cc1ncsc1-c1ccc(C(C)NC(=O)C2CC(O)CN2C(=O)C(NC(=O)CCCCCCCCCCN2CCCC(Nc3ncc(Cl)c(Nc4ccccc4S(=O)(=O)C(C)C)n3)C2)C(C)(C)C)cc1 (stereo not shown),22Rv1,"RNA-seq, item: PRKD2 mRNA",,concentration not given,reference: DMSO,log2 fold change,-1.04
